Experimental data of several laboratories.
Several values in a cell are separate wells, animals, samples, runs or records. Numbers after ± are the reported error.

O=C1CCC(N2Cc3cc(CO)c(F)cc3C2=O)C(=O)N1 (stereo not drawn)  plasma concentration (CD-1 mouse, male; oral, 10 mg/kg parent drug, 0.67 h): 29.4 ± 14 ng/mL
c1ccc(-c2nc(N3CCC(c4ccccn4)C3)c3ccccc3n2)nc1 (stereo not drawn)  plasma concentration (mouse, Balb/c female, plasma; oral, 12.5 mg/kg, 24 h, mean, added: aminobenzotriazole pretreatment): 55.7 ng/mL
c1csc(CNc2cc[nH]n2)c1  plasma concentration (mouse, CD-1, male, plasma; oral, 20 mg/kg as HCl salt, 0.25 h): 54.6 µM
Cc1cc([C@H]2C[C@H]3[C@@H](C)SC(N)=N[C@@]3(c3ccc(F)cc3F)CO2)on1  plasma concentration (male 129/SVE mouse, plasma; subcutaneous, 50 mg/kg, 5 h): 0.692 µM
Cc1c(C(=O)O)ccc2c3n(nc12)[C@@H]1[C@H](C3)N(CC2CC2)[C@@]2(C(=O)Nc3cc(Cl)ccc32)[C@H]1c1cccc(Cl)c1F  plasma concentration (female BALB/c nude mouse, SJSA-1 xenograft, plasma; oral, 2 mg/kg once daily, 7 h): 1.1 µM
CCN1CCN(Cc2ccc(NC(=O)c3ccc(C)c(NC(=O)c4cncc(-c5cccs5)c4)c3)cc2C(F)(F)F)CC1  plasma concentration (C57BL/6 mouse, plasma; intraperitoneal, 15 mg/kg, 24 h, single dose): not detected
CC(C)(C)c1cc(NC(=O)Nc2ccc(Oc3ccnc4[nH]c(=O)cnc34)cc2F)n(-c2ccccc2)n1  plasma concentration (NSG mouse, female, plasma; oral, 20 mg/kg, 1 h after last dose): 19.1 µM and 28.1 µM and 42.1 µM and 19.5 µM and 10.6 µM
CCCCCN1C[C@H](O)[C@@H](O)[C@H](O)[C@@H]1CO  plasma concentration (LC-MS/MS; mouse Hexb-/- total, plasma; 300 mg/kg/day, geometric mean): 3020 ng/mL
CNC(=O)c1cc2c(Oc3ccc(NC(=O)C4(C(=O)Nc5ccc(F)cc5)CC4)cc3)ccnc2cc1OC  plasma concentration (LC-MS/MS; mouse, NCI-H441 xenograft, plasma; oral, 3 mg/kg once daily for 14 days, 4 h): 2.44 µM
C[C@@H](O)[C@H]1C(=O)N2C(C(=O)O)=C(S[C@@H]3CN[C@H](C(=O)N(C)C)C3)[C@H](C)[C@H]12  plasma concentration (BALB/c mouse, male, plasma; intraperitoneal, dose not given, 4 h, added: combination treatment): 11700 ng/mL
Cc1cc([C@H]2C[C@H]3[C@@H](CF)SC(N)=N[C@@]3(c3ccc(F)cc3F)CO2)on1  plasma concentration (male 129/SVE wild-type mouse, plasma; subcutaneous, 30 mg/kg, 3 h): 0.654 µM
O=[N+]([O-])c1ccc(-c2ccc(O)cc2)c2cccnc12  plasma concentration (ICR mouse, male; oral, 5 mg/kg, 0.25 h): 65.9 ng/mL
